Experimental data pooled from the literature.

SMILES	test	test system	conditions	how to read	quantity	value
O=C(c1ccccc1)N1C(c2ccc(OCC3CCN(CCCF)C3)cc2)c2ccc(O)cc2CC12CC2 (centres unmarked)	–	C57BL/6J mouse, plasma	intraperitoneal, 25 mg/kg, group mean	–	half-life	3.61 h
C[C@]12C[C@H](c3ccc(S(C)(=O)=O)cc3)C3=C4CC[C@@H](O)C=C4CC[C@H]3[C@@H]1CC[C@@]2(O)C(F)(F)C(F)(F)F	–	human, plasma	oral, 5 mg multiple doses, day 28	–	half-life	68.1 h
CCC(CC)CNC(=N)NC(=N)NCCCCCCNC(=N)NC(=N)NCC(CC)CC	metabolic stability	dog, liver microsomes	2 µM	–	half-life	31.5 h
CCCCCCCOc1ccc(CC[C@](N)(CO)COP(=O)(O)O)cc1C(F)(F)F	–	healthy human males, plasma	oral, 0.5 mg, day 21	–	half-life	376 h
C[C@]12C[C@H](c3ccc(S(C)(=O)=O)cc3)[C@@H]3C4=C(CC[C@H]3[C@@H]1CC[C@@]2(O)C(F)(F)C(F)(F)F)C(=O)[C@H](O)CC4	–	human, plasma	oral, 5 mg multiple doses, day 28	–	half-life	124 h
CC[C@H](C)[C@@H]1NC(=O)[C@H](Cc2ccc(O)cc2)NC(=O)CCCSC[C@@H](C(=O)N(CC(=O)N[C@@H](CC(C)C)C(=O)NCC(N)=O)Cc2ccc(F)cc2)NC(=O)[C@H](CC(N)=O)NC(=O)[C@H](CCC(N)=O)NC1=O	–	human, plasma	intravenous infusion, 20 µg, 25 min infusion, harmonic mean	–	half-life	~0.167 h
COc1cc2c(cc1OC)[C@H]1C[C@@H](O)[C@H](CC(C)C)CN1CC2	item: compound	human, male, plasma	oral, 25 mg [14C]-tetrabenazine, geometric mean	–	half-life	5.68 h
C=C(NC(=O)c1csc(-c2nc3c(cc2O)-c2nc(cs2)C(=O)NC(C(C)O)C(=O)NC(=C(C)OC)c2nc(cs2)C(=O)NC2c4nc(cs4)C(=O)NC(COC(=O)c4c5c6c(cccc6n4O)COC(=O)C(OC4CC(C)(O)C(N(C)C)C(C)O4)C2OC5)c2nc-3cs2)n1)C(N)=O (centres unmarked)	metabolic stability	dog, liver microsomes	2 µM	–	half-life	5.47 h
Cl.NCc1ccc2c(c1)CN(C1CCC(=O)NC1=O)C2=O (centres unmarked)	–	human, mixed sex, whole blood	–	–	half-life	> 3 h
COC1CN([C@H]2CC[C@H]([C@@]3(C)Oc4c(Cl)cc(C(=O)NCc5c(SC)cc(C)[nH]c5=O)c(C)c4O3)CC2)C1	RNA-seq, item: NRIP3	human, whole blood	dose not given, 24 h	reference: pretreatment baseline	log2 fold change	4.56
C/C(N)=N/C(=N\S(=O)(=O)c1ccc(C(F)(F)F)cc1)N1C[C@H](c2ccccc2)C(c2ccc(Cl)cc2)=N1	–	male C57BL/6 mouse, lung	intravenous, 10 mg/kg	–	half-life	1.4 h

For quick reference, copied from above:
SMILES	test	test system	conditions	how to read	quantity	value
COc1cc2c(cc1OC)[C@H]1C[C@@H](O)[C@H](CC(C)C)CN1CC2	item: compound	human, male, plasma	oral, 25 mg [14C]-tetrabenazine, geometric mean	–	half-life	5.68 h
